Results pooled from the literature.
Compare with care: the assays were run in different laboratories.
NSE1: NSE1 (Saccharomyces cerevisiae, UniProt Q07913)
Sequence of UniProt Q07913 (whole entry, looked up): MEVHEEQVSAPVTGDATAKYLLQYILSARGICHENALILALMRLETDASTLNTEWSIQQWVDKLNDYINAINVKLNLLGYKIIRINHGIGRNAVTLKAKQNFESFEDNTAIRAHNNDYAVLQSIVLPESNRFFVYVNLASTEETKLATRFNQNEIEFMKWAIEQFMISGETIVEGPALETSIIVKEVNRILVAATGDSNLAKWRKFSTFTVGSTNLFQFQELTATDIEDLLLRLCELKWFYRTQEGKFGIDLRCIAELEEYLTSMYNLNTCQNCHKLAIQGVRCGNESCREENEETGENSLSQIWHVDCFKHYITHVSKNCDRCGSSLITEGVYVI
ORC4: ORC4 (Saccharomyces cerevisiae, UniProt P54791)
Sequence of UniProt P54791 (whole entry, looked up): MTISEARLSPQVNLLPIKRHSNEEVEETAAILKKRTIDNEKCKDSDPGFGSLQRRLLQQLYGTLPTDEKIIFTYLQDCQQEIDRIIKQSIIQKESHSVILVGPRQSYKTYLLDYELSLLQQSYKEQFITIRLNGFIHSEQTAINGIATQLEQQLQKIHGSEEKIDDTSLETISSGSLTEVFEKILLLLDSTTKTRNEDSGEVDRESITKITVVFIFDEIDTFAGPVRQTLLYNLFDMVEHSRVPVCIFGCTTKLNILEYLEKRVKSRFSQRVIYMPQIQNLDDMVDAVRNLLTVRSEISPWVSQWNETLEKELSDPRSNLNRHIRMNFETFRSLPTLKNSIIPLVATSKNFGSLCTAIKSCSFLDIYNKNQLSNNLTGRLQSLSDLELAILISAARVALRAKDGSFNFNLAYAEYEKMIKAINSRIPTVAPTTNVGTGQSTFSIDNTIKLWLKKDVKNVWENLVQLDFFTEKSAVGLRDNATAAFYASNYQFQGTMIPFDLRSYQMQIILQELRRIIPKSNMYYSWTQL
MCM7: MCM7 (Saccharomyces cerevisiae, UniProt P38132)
ORC2: ORC2 (Saccharomyces cerevisiae, UniProt P32833)
Sequence of UniProt P29496 (whole entry, looked up): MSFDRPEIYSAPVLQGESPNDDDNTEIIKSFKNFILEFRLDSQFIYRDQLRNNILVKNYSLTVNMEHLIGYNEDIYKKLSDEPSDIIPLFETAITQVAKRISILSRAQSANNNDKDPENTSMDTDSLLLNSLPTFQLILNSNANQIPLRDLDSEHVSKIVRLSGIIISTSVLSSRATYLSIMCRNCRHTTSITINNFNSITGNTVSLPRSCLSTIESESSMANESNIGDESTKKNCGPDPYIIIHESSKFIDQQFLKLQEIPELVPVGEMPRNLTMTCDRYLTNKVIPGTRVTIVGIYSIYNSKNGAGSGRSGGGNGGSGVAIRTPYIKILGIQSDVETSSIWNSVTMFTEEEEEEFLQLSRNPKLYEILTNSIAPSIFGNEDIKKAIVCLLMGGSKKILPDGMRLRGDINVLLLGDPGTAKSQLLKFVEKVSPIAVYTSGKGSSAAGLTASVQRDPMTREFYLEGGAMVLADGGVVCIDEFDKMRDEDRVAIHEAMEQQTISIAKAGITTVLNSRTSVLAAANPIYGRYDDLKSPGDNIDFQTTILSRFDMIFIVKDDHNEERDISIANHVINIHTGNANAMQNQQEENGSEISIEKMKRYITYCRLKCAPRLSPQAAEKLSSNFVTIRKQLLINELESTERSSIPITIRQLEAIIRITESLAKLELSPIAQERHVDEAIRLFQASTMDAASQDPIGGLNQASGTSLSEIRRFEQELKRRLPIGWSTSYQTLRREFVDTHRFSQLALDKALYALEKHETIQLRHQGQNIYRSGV
Sequence of UniProt P32833 (whole entry, looked up): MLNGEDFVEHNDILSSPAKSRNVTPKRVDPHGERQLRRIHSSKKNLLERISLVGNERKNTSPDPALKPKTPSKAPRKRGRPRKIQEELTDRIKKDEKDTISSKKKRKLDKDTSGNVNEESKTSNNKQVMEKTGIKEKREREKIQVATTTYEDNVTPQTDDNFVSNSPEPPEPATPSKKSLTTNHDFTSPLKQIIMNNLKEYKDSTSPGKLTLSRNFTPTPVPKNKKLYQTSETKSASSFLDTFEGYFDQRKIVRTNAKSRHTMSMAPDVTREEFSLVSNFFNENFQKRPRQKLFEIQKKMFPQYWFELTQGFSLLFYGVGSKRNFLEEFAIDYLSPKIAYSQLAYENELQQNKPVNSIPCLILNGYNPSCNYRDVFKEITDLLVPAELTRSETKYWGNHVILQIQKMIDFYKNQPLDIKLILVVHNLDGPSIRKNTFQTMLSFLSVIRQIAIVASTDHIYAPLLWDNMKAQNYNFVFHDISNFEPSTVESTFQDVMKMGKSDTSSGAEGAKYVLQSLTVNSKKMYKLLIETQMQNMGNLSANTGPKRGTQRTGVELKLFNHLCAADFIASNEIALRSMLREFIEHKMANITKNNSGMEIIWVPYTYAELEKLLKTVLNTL
Sequence of UniProt Q05541 (whole entry, looked up): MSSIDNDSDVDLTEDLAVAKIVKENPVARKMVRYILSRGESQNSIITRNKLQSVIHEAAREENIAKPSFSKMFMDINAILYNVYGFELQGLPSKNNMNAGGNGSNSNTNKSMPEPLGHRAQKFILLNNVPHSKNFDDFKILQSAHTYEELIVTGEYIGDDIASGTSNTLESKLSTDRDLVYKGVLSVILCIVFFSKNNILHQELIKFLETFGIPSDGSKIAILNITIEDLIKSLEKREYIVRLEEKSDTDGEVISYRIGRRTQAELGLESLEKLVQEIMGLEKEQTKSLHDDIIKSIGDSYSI
Sequence of UniProt P54784 (whole entry, looked up): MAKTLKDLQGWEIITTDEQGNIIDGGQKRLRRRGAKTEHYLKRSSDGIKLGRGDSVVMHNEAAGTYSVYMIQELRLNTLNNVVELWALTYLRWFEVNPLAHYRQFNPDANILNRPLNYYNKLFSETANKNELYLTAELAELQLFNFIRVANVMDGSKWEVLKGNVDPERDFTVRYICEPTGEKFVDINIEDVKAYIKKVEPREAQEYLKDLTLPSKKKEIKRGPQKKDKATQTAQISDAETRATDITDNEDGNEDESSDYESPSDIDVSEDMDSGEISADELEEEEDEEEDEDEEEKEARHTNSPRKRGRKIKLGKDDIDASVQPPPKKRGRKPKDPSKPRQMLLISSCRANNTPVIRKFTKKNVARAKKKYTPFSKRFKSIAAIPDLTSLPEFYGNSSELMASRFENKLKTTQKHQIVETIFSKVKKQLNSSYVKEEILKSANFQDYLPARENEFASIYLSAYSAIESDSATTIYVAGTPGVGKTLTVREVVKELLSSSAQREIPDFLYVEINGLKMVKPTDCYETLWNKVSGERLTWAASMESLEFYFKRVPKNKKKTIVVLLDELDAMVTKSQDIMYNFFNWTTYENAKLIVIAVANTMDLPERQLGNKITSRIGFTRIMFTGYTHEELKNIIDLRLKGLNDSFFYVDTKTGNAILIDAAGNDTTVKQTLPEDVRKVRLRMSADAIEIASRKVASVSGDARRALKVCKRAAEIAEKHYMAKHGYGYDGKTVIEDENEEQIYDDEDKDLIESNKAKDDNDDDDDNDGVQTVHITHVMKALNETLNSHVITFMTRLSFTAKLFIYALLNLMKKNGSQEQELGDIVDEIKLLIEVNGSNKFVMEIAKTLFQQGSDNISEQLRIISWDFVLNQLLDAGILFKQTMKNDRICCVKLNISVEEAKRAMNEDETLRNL
Sequence of UniProt P30665 (whole entry, looked up): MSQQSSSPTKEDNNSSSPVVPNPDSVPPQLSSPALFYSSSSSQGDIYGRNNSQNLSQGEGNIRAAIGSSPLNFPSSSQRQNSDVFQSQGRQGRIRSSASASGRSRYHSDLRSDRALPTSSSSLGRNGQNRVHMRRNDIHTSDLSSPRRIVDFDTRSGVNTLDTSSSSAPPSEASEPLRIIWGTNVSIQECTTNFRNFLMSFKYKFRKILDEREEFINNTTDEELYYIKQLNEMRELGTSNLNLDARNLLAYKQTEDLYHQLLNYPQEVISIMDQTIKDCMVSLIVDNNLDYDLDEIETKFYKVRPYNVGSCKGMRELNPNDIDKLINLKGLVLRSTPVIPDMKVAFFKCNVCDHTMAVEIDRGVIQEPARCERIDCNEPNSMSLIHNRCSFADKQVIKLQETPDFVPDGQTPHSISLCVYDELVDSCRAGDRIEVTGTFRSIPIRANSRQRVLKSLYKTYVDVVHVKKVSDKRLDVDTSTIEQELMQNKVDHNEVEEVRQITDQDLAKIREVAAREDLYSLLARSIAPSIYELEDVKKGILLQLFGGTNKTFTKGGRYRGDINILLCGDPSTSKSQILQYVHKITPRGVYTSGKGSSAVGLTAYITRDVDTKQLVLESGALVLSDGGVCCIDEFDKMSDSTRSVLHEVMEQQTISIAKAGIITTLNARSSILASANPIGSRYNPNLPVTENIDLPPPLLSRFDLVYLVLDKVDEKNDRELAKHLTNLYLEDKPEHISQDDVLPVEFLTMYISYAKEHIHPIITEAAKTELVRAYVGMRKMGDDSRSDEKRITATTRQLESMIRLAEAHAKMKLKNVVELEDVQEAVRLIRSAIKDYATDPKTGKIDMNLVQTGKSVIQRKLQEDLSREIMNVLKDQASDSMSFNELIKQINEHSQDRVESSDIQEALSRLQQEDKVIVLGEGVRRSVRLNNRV
Sequence of UniProt P54790 (whole entry, looked up): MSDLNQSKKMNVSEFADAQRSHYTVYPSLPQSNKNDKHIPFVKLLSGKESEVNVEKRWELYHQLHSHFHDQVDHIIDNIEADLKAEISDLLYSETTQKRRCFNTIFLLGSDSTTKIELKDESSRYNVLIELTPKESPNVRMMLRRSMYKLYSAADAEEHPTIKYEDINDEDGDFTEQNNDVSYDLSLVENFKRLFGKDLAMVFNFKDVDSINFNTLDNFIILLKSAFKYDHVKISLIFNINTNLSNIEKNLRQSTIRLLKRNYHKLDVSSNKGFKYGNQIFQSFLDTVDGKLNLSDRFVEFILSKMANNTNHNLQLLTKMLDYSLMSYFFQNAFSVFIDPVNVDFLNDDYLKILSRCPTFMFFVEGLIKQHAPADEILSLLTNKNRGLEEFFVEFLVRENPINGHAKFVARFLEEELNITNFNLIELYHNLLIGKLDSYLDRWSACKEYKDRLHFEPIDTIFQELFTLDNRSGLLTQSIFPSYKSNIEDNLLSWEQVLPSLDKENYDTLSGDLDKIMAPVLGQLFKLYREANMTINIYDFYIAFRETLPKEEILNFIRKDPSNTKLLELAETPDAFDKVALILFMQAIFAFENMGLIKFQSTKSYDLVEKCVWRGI

NSE4 (Saccharomyces cerevisiae, UniProt P43124) — interaction screen (NSE1; cross-linking MS; hits only): cross-linked
CDC6 (Saccharomyces cerevisiae, UniProt P09119) — interaction screen (ORC1 (Saccharomyces cerevisiae, UniProt P54784); cross-linking MS; hits only): cross-linked
colistin — MIC (Escherichia coli; broth microdilution; clinical isolate RKI-No_95/15): ≤ 0.5 µg/mL
ORC5 (Saccharomyces cerevisiae, UniProt P50874) — interaction screen (ORC4; cross-linking MS; hits only): cross-linked
MCM5 (Saccharomyces cerevisiae, UniProt P29496) — interaction screen (MCM7; cross-linking MS; hits only): cross-linked
GSGAGIESNV — normalised SPR binding response (human MAGI1-3/6 PDZ construct (MBP fusion); surface plasmon resonance; peptide; concentration not given; higher = stronger binding): 5.8 normalised RU
H2BC3 (Homo sapiens, UniProt P33778) — interaction screen (H2AC18 (Homo sapiens, UniProt Q6FI13); cross-linking MS; hits only): cross-linked
PSF2 (Saccharomyces cerevisiae, UniProt P40359) — interaction screen (CDC45 (Saccharomyces cerevisiae, UniProt Q08032); cross-linking MS; hits only): cross-linked
MCM3 (Saccharomyces cerevisiae, UniProt P24279) — interaction screen (ORC2; cross-linking MS; hits only): cross-linked
RPT6 (Saccharomyces cerevisiae, UniProt Q01939) — interaction screen (MLP1 (Saccharomyces cerevisiae, UniProt Q02455); cross-linking MS; hits only): cross-linked
NSE3 (Saccharomyces cerevisiae, UniProt Q05541) — interaction screen (SMC5 (Saccharomyces cerevisiae, UniProt Q08204); cross-linking MS; hits only): cross-linked
MCM2 (Saccharomyces cerevisiae, UniProt P29469) — interaction screen (MCM5 (Saccharomyces cerevisiae, UniProt P29496); cross-linking MS; hits only): cross-linked
NRVDSKETEC — normalised SPR binding response (human MAGI1-3/6 PDZ construct (MBP fusion); surface plasmon resonance; peptide; concentration not given; higher = stronger binding): 0 normalised RU
ORC2 (Saccharomyces cerevisiae, UniProt P32833) — interaction screen (ORC3 (Saccharomyces cerevisiae, UniProt P54790); cross-linking MS; hits only): cross-linked
NSE5 (Saccharomyces cerevisiae, UniProt Q03718) — interaction screen (NSE1; cross-linking MS; hits only): cross-linked
KRT8 (Homo sapiens, UniProt P05787) — interaction screen (KRT7 (Homo sapiens, UniProt P08729); cross-linking MS; hits only): cross-linked
MCM3 (Saccharomyces cerevisiae, UniProt P24279) — interaction screen (MCM2 (Saccharomyces cerevisiae, UniProt P29469); cross-linking MS; hits only): cross-linked
MCM5 (Saccharomyces cerevisiae, UniProt P29496) — interaction screen (ORC2; cross-linking MS; hits only): cross-linked
KRE29 (Saccharomyces cerevisiae, UniProt P40026) — interaction screen (NSE3 (Saccharomyces cerevisiae, UniProt Q05541); cross-linking MS; hits only): cross-linked
MCM4 (Saccharomyces cerevisiae, UniProt P30665) — interaction screen (MCM7; cross-linking MS; hits only): cross-linked
MCM4 (Saccharomyces cerevisiae, UniProt P30665) — interaction screen (MCM6 (Saccharomyces cerevisiae, UniProt P53091); cross-linking MS; hits only): cross-linked
H2AZ1 (Homo sapiens, UniProt P0C0S5) — interaction screen (Histone H3.1 (Homo sapiens, UniProt P68431); cross-linking MS; hits only): cross-linked
BAIAP3 (Homo sapiens, UniProt O94812) — interaction screen (PHB1 (Homo sapiens, UniProt P35232); cross-linking MS; hits only): cross-linked
H2BC5 (Homo sapiens, UniProt P58876) — interaction screen (H3-3A (Homo sapiens, UniProt P84243); cross-linking MS; hits only): cross-linked
H2BC12 (Homo sapiens, UniProt O60814) — interaction screen (H2AC20 (Homo sapiens, UniProt Q16777); cross-linking MS; hits only): cross-linked
ORC1 (Saccharomyces cerevisiae, UniProt P54784) — interaction screen (ORC4; cross-linking MS; hits only): cross-linked

Repeated from above:
NSE4 (Saccharomyces cerevisiae, UniProt P43124) — interaction screen (NSE1; cross-linking MS; hits only): cross-linked
CDC6 (Saccharomyces cerevisiae, UniProt P09119) — interaction screen (ORC1 (Saccharomyces cerevisiae, UniProt P54784); cross-linking MS; hits only): cross-linked
